Experimental data of several laboratories.
A part holds a random share of what one study measured. Positions count from the first letter of the parent shown.

Series 1
Target: Histone acetyltransferase KAT6A, winged helix 1, GST fusion (KAT6A, Homo sapiens, UniProt Q92794, residues 1-85)
Technique: protein binding microarray
Form: double-stranded DNA, one strand shown
Matrix: in vitro
Concentration: not given
Notes: 8-mer, flanks averaged, mean of 2 arrays, mostly near background
Relative to: not given
Direction: higher = stronger binding
Quantity: E-score
Target sequence (chain): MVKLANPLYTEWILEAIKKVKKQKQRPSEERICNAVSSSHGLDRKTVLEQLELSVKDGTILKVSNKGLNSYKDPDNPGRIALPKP
AGGTGGTG: -0.235
CACTAGAA: -0.12
ATTAAGGC: -0.0532
AACAATGG: -0.195
AGAAGATG: -0.0515
GAGCTATC: 0.0577
GGATAGAC: -0.00485
GAAAGACC: 0.026
GGATACCA: 0.0897
CATACCTC: -0.229
AGGACAAG: -0.139
ACAATCCG: 0.125
CTCGGTCA: 0.00276
CTAATAGC: 0.0284
AAATTGAA: -0.257
ACCTGAAA: -0.132
CAGACCCA: -0.145
AGTTTCAG: 0.0604
CGGACACA: 0.143
AATAGCCA: -0.292
CCTATAGA: -0.0436
GTTCGACA: -0.145
CGAACACC: 0.023
CGTTCCCA: -0.0599
CCCTAGAC: -0.173

Series 2
Target: RNA binding protein fox-1 homolog 2, RRM domain, GST-SBP tag (RBFOX2, Homo sapiens, UniProt O43251-10, residues 100-194)
Technique: RNA Bind-n-Seq
Form: RNA
Matrix: in vitro
Concentration: 365 nM
Notes: natural RNA segment, single round, ends assumed
Relative to: no-protein control
Direction: higher = stronger binding
Quantity: RBNS enrichment (R)
Shared flanks, not repeated: GGGAGUUCUACAGUCCGACGAUC … UGGAAUUCUCGGGUGCCAA
Target sequence (chain): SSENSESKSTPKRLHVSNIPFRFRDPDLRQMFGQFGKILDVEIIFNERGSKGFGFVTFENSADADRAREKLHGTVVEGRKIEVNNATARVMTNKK
UGUGUGUGCACGCGUUCGCACAUGCGUGAGUGUGUAGCAGAAGUGUGUACAGAGAGGCCCGUGCUAGCUAGCACCAAGUUGGUUGACAGAUUGUUUUGUGAUGCUUGCCC: 0.696
UAAUAUCCCUAUCCAUGGAUCAUUUGAGUAUUGACUAAUGUACAUAGGUACCCAACUGGUUGAUUAUUAAUCAAGAAUACAGAACUUUAUUUAAUAAUUAGCACACCCUG: 0.311
GCAGACAGAUGGUGGAUGGUCUGGACAAGAAGCGAGUAAGCCACUGCGGUUGGUCAUACUGAAGGGAAUUGAUGGCAAGAGGAUCCCCUGAGCAAGUCAGAAGUUACUCU: 1.17
GGUGAUGAACAGGAGCCUAUUUCAGUGAAGGAGGAGCCAUGGGCUUCCCAGAGUUCUGGCAGGCAUCCGCACCAUGGGGAAGCUUCAUCUACCAAUGAUUGUUUAGCUAG: 0.431
GUGUGAAGGGACCUGUGGCCACCAGAGGAUGCUCUGGGCCUACUGAGGACAGGCCACUUGUGCUCAGAGAACCUCACCUCACCGCAGAAGUGGUGCCUCUUCCAGAAGAC: 0.479
CAGGAUGUAUAAUUUAUCUGUCUACUCAGAAUAUUAAUUUGUAAAUUCUGCAAGGUUAAUUUUAUGUAAUGGUAUAACUUUUGAAAUUAUUGUCUUAUGUUAUUUGUUUU: 0.934
UUUAUUAUGACACUAGAUACAGUAAAUUUUUAGAAAAAAAUACCAUUUACAGUAUUAUUGUGAACCAUUUAACCCUUUUGAUCCAAGGCCCCGGACCAAGGGGAUACUGU: 0.312
AGAUCAGAAAGAAACCUUUUGUAGCAAUAUCAAGAAUCUAGUUUCAUCUGAGAACUUCUGAUUAGCUCUCAGUCUUCAGCUCUAUUUAUCUUAGGAGUUUAAUUUGCCCU: 0.342

Series 3
Target: CCND3, cyclin fold, Cln2 fusion (human)
Technique: yeast growth competition, sequencing
Matrix: yeast
Notes: weak parent motif
Relative to: not given
Direction: higher = stronger binding
Quantity: normalised enrichment score
Starting sequence: PKMYT1 docking peptide (human); SFEPRNLLSLFED
SFEPRQLLSLFED [N6Q]: 0.122
SFEPRNLLCLFED [S9C]: 0.0173
SFEPRNLGSLFED [L8G]: 0.0612
SFEPYNLLSLFED [R5Y]: 0.128
SFEPRNLLSLFLD [E12L]: -0.0711
SFEPRNLLSLFFD [E12F]: 0.0694
SFEPRNLLSLFEW [D13W]: -0.00265
SFEPRNLISLFED [L8I]: 0.0921
SFEPRNLLYLFED [S9Y]: 0.0598
SFEPRNLLSLNED [F11N]: 0.0872
SCEPRNLLSLFED [F2C]: 0.0973
SFEPRNLLSKFED [L10K]: 0.035
SFEMRNLLSLFED [P4M]: 0.19

Series 4
Target: Interferon regulatory factor 3, full length, phosphomimetic (IRF3, Homo sapiens, UniProt Q14653, residues 1-427, S386D/S396D/S398D/S402D/T404D/S405D)
UniProt Q14653, sequence (whole entry, unmodified, looked up): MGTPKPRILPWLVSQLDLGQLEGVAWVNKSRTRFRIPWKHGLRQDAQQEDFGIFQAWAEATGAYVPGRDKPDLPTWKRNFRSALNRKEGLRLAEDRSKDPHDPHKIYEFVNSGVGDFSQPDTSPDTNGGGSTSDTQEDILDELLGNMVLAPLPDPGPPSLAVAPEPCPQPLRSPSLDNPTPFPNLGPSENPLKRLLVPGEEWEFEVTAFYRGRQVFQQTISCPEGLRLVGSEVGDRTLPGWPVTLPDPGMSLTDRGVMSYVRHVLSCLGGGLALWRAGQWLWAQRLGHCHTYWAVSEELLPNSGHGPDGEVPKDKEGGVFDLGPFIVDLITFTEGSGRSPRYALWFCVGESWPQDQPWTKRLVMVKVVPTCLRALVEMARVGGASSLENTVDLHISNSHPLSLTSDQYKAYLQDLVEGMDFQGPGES
Technique: protein-binding microarray
Form: double-stranded DNA, one strand shown
Matrix: in vitro
Concentration: 2540 nM top
Notes: 60-bp whole probe
With: salmon DNA 0.4 mg/ml
Relative to: random background probes
Direction: higher = stronger binding
Quantity: fitted relative affinity
Shared flanks, not repeated: GCCTAGCAC … GTCTTGATTCGCTTGACGCTGCTG
TTAGGTATCGGGACTTGGTTAGTGCTA: 0.724 z-score
GACGGTATCGACTATCGGGGCGTGCTA: 0.345 z-score
ATGTCTTCCCCTCTCATTCCGTGCTAG: 0.983 z-score
TTAGATATCTGACTGGATTAGTGCTAG: -0.238 z-score
GACGGTTTCGATTTTCGGGACGTGCTA: 7.32 z-score
GACGGAGTGCTTATCCTGACGTGCTAG: -0.201 z-score
CTGTTTTTCTCACCACATTTTGTGCTA: 1.48 z-score
TCATTTTTCTACTTCTCACTGTGCTAG: 2.47 z-score
GACGGACGGGGTATCGGGACGTGCTAG: -0.279 z-score
TTAGGACTGGACTGTCGGTTAGTGCTA: -0.682 z-score
TTAAGTATCGACACTGGGTTAGTGCTA: 0.35 z-score
GACGAGCTGGGGACTGGAGACGTGCTA: -1.2 z-score
GACGGTTACGGGTATCGGGACGTGCTA: 0.302 z-score
TTAGATCTCAGGATCGATTAGTGCTAG: 0.198 z-score
GAAAGAATCACAACTAGGAAGGTGCTA: 0.802 z-score
TTAGGACTGCTTTTCCTTTAGTGCTAG: 0.903 z-score
GCCAAAAGTGTAAATGTAAGGTGCTAG: -0.22 z-score
TGAGATTTCAGTCTCGATTAGTGCTAG: 2.08 z-score
GACGCACTGGGGTATCGGGACGTGCTA: -0.505 z-score

Excerpt of the above (series 3):
SFEPRQLLSLFED [N6Q]: 0.122
SFEPRNLLCLFED [S9C]: 0.0173
SFEPRNLGSLFED [L8G]: 0.0612
SFEPYNLLSLFED [R5Y]: 0.128
SFEPRNLLSLFLD [E12L]: -0.0711
SFEPRNLLSLFFD [E12F]: 0.0694
SFEPRNLLSLFEW [D13W]: -0.00265
